Experimental data gathered from unrelated publications.
Lines come from different studies, so protocols differ.
MAPKAPK3: MAP kinase-activated protein kinase 3 (MAPKAPK3, Homo sapiens, UniProt Q16644)
Chain of UniProt Q16644 (whole entry, looked up): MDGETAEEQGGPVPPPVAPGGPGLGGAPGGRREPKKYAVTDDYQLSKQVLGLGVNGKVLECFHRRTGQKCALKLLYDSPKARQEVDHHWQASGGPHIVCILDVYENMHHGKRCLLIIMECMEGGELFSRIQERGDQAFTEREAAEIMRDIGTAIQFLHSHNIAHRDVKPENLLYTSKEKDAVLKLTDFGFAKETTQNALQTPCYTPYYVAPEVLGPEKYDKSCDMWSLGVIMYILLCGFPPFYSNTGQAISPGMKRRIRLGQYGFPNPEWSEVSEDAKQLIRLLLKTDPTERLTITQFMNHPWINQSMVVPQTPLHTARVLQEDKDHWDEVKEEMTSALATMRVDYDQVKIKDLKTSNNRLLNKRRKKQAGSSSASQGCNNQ
Chain of UniProt Q9HC98 (whole entry, looked up): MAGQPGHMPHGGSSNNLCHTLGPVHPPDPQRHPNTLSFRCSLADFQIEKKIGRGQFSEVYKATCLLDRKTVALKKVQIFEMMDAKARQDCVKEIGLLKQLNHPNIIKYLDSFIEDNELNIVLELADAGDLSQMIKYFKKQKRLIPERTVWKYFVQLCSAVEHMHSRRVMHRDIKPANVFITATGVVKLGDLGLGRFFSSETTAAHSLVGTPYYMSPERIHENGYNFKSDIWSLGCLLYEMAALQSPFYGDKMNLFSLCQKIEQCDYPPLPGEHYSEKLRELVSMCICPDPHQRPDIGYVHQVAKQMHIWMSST
Chain of UniProt Q63531 (whole entry, looked up): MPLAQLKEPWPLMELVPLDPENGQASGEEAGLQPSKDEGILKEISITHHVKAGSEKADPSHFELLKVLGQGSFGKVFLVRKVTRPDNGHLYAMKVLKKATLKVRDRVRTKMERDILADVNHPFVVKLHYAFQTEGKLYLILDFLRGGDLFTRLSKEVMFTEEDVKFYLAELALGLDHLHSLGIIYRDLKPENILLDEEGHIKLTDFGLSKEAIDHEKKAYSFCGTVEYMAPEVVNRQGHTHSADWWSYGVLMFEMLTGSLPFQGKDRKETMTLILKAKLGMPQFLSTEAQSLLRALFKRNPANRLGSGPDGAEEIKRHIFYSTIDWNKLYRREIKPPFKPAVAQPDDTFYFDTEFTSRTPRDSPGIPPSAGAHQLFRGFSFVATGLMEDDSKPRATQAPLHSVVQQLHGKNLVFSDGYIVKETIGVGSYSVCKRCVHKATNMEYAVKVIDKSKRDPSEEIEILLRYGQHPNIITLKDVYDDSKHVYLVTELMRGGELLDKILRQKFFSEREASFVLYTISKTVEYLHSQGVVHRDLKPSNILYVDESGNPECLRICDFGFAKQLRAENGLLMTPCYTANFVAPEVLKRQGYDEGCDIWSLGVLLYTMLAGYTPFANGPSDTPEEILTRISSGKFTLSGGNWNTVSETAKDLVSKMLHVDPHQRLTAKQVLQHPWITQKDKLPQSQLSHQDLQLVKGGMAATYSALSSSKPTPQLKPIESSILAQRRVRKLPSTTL
Chain of UniProt O75582 (whole entry, looked up): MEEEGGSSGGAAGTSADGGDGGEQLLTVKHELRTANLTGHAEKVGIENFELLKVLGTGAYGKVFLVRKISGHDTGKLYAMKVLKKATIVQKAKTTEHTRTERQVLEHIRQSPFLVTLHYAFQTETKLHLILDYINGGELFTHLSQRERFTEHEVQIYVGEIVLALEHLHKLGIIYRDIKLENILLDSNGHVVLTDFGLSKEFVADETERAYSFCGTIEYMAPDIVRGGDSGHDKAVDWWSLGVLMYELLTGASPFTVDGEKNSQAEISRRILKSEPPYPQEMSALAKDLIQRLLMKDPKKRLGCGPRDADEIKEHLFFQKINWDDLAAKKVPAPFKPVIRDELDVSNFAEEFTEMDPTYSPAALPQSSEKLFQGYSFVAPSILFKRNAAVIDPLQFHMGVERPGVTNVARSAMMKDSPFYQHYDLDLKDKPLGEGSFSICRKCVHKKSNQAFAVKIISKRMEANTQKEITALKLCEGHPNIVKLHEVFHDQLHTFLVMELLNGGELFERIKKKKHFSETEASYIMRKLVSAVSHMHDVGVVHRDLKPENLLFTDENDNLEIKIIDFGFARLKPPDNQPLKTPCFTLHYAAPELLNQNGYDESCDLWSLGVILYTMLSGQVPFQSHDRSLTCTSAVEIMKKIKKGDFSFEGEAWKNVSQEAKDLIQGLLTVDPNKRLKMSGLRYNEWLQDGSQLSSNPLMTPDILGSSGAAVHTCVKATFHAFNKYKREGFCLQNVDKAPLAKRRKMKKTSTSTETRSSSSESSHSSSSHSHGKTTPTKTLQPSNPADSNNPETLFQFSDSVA
Chain of UniProt P37173 (whole entry, looked up): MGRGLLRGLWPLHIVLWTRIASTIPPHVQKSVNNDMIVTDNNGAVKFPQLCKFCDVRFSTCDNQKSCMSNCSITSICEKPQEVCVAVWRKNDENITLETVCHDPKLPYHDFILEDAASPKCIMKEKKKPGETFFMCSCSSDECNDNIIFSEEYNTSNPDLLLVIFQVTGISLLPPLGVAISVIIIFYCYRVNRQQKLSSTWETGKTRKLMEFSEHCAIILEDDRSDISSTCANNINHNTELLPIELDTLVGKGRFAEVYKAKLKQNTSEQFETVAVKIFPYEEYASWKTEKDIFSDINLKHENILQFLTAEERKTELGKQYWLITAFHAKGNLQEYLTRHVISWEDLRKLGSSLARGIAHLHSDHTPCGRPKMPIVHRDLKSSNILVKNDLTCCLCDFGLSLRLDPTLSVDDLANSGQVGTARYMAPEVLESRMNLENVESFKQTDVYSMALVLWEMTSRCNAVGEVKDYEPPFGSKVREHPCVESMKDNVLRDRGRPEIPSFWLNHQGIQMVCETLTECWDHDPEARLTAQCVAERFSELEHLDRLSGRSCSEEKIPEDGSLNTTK

COc1cc(-c2cncc3c2CN(C)Cc2cc(N4CCNCC4)ccc2-3)cc(OC)c1OC has a remaining activity of 110% (Rps6ka1 (Rattus norvegicus, UniProt Q63531); kinase activity; 1 µM, rat enzyme, with: ATP 10 µM; baseline: DMSO control).
O=C1NC(=O)/C(=C/c2ccc(-c3ccc(F)cc3O)o2)S1 gave a remaining activity of 54% (RPS6KA5 (Homo sapiens, UniProt O75582); enzyme activity; 10 µM).
Cc1cc(Nc2cc(N3CCN(C)CC3)nc(Sc3ccc(NC(=O)C4CC4)cc3)n2)[nH]n1 has a remaining activity of 105% (NEK6 (Homo sapiens, UniProt Q9HC98); kinase activity, KinaseProfiler; 0.03 µM, species human; baseline: control).
With O=C(NC1CCC1)c1ccc2nc(-c3cccc(NS(=O)(=O)NCCN4CCCCC4)c3)cn2c1 the remaining activity was 100% (TGFBR2 (Homo sapiens, UniProt P37173); enzyme activity; 10 µM).
COc1cc(Nc2ncc3c(n2)-c2ccc(Cl)cc2C(c2c(F)cccc2OC)=NC3)ccc1C(=O)O gave a remaining activity of 98% (SRMS; kinase activity; 1 µM).
For CNc1ncc2c(/C=C/C(=O)N3CCC(OC)CC3)nn(Cc3cccc(C(F)(F)F)c3)c2n1, the remaining activity was 85% (MAPKAPK3; kinase activity, inhibitor; 1 µM; baseline: untreated control).
The remaining activity of O=C(O)c1ccc(Nc2ncc3c(n2)-c2ccc(Cl)cc2C(c2c(F)cccc2F)=NC3)cc1 is reported as 83% (AMPK(r); kinase activity; 1 µM).
COc1cc(F)ccc1-c1ncnc(Nc2cccc(C[S@](C)(=N)=O)c2)n1 gave a remaining activity of 90% (MAPKAPK3; kinase activity; 10 µM, with: 10 µM ATP).

For quick reference, copied from above:
COc1cc(Nc2ncc3c(n2)-c2ccc(Cl)cc2C(c2c(F)cccc2OC)=NC3)ccc1C(=O)O gave a remaining activity of 98% (SRMS; kinase activity; 1 µM).
